Results gathered from unrelated publications.
Every numbered part comes from another study and shows a few of its results, in no order.

Study 1 — technique: protein-binding microarray; molecule type: double-stranded DNA, one strand shown; matrix: in vitro; tested at: not given; reading: higher = stronger binding
Target: Protein max, full length (MAX, Homo sapiens, UniProt P61244-2, residues 1-151)
Notes: k-mer, scored over probes, only values ≥0.25
Oligonucleotide | E-score
GTGTGATA | 0.252
GCGTGGTA | 0.432
GGACGCAC | 0.319
CACATGGC | 0.487
CATGTTTA | 0.347
CATGCCAA | 0.312
CTGCGTGA | 0.3
ATGCGTAC | 0.319
CACGAGTG | 0.416
CTCGTGAA | 0.327
CCCATGAG | 0.311
CAGCACGC | 0.403
AGCGTGTA | 0.387
CCCCGCCG | 0.281
ATGGGGCG | 0.328
ACGTGTGG | 0.437
CGTGATAC | 0.343
AGCGCACG | 0.383
GAACCCAC | 0.273
ACGCCGTG | 0.294
ACGCGCCT | 0.259
GCACGTGA | 0.491
CGCATGAC | 0.428
AGGCATGG | 0.376
CGTGTAGC | 0.354

Study 2 — technique: RNA Bind-n-Seq; molecule type: RNA; matrix: in vitro; tested at: 90 pmol; notes: 4-mer, random 30-nt RNA, single round; together with: 3 µM DMDA-PatA, 2 mM ADP, 2 mM phosphate; reference: input library; reading: higher = stronger binding
Target: ATP-dependent RNA helicase DDX3X, helicase core (DDX3X, Homo sapiens, UniProt O00571, residues 132-607)
Chain of UniProt O00571 (132-607, looked up): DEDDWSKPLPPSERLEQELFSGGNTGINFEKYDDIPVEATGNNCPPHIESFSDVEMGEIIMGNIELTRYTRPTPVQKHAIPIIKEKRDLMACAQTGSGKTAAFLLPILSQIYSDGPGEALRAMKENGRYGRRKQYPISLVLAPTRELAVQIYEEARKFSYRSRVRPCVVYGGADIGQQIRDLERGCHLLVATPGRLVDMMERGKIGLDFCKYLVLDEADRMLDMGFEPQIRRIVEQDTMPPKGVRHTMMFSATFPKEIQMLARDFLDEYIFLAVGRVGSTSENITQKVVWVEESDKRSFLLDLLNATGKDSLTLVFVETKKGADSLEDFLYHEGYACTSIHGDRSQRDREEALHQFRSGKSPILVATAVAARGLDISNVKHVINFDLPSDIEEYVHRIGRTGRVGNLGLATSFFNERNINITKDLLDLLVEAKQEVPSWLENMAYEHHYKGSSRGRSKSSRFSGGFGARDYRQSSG
Oligonucleotide | 4-mer enrichment [fold]
UCGA | 0.896
GGGG | 1.31
UCAA | 1.03
GGGC | 1.07
AUGU | 1.01
ACCU | 0.851
AGGU | 1.11
AAUU | 1.08
AGUA | 1.13
UGAU | 0.863
GUGC | 0.977
AAAA | 1.19
CACC | 1.05
UUGC | 0.851
AUGA | 1.02
CAAG | 1.18
UUUC | 0.948
GGAU | 0.936
AGCG | 1.09
CUGG | 0.818
ACCG | 0.916
CCGC | 1.06
ACUU | 0.789
UCAC | 0.947
GCCU | 0.805

Study 3 — technique: protein-binding microarray; molecule type: double-stranded DNA, one strand shown; matrix: in vitro; tested at: 0.8 µM; notes: whole 60-bp probe, no competitor; reading: higher = stronger binding; shared flanks, not repeated: … GTCTTGATTCGCTTGACGCTGCTG
Target: Centromere-binding protein 1, full length, N-terminal tag (CBF1, Saccharomyces cerevisiae, UniProt P17106, residues 1-351)
Chain of UniProt P17106 (whole entry, looked up): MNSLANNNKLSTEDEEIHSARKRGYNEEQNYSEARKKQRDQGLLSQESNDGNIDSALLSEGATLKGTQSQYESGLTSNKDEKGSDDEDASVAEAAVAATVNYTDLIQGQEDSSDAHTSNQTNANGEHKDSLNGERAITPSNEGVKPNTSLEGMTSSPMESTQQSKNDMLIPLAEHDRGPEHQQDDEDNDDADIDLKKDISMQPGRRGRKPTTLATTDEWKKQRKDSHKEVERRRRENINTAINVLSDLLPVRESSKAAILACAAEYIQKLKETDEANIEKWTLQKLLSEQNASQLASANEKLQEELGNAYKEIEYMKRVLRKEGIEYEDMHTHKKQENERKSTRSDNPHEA
Oligonucleotide | fluorescence intensity
CTAGTTAATCGCCTACATGTGAGGTTTTTTTAATTC | 726 a.u.
CTAACCAGCGCCCATCACGATACCTTAAATAGTTTC | 944 a.u.
CTATGGAGTCTTCACCATCAGCATCGTCCTCATTTC | 498 a.u.
TGTACGAAGCTATCTCAGGTGACTATAGTAGTTAGG | 1010 a.u.
CTAACGCTTTTACTTCACCCCATCTTATACTATTTC | 559 a.u.
CTATTCTTTACGAGCCACGGGGCTGCTATTTCATTC | 751 a.u.
CCTAACTACTATATACACGAGGTATAGCTTCGTACA | 621 a.u.
GAAAATATGAAAACTCACATGCCTTCTGTTTCTTAG | 559 a.u.
GAAGGTGTTCAAAACCACGTTCATCACTCGGTATAG | 532 a.u.
GAACTAAATATTGAACACGTTAAAAATAAGTTCTAG | 610 a.u.
GAACAGATTCCCGCGGACGTGGGAAGGAAAAAATAG | 511 a.u.
GAAATGACTCCATAAAACGTGAAGCAGCAGCTATAG | 532 a.u.
GAATCTTCTGTTGGTGACGAAATCTCTGCTGTATAG | 580 a.u.
CTAAGGCAGCCAAAGAGGGTCACCTATGCAGGTTTC | 475 a.u.
GAAATGATTCCTTTTCACGCGCATTTTTTTCAGTAG | 678 a.u.
GAATGACTCAAGTGTCACGTGCATCAGTTTTTCTAG | 13300 a.u.
CTAAATCATTCGTGCCTCGTGATATTGAGAAGATTC | 1420 a.u.
CCTAACTACTATAATCACGTGCCATAGCTTCGTACA | 16100 a.u.
CCTAACTACTATATTCACGTGTTATAGCTTCGTACA | 3440 a.u.
CCTAACTACTATATCTTCGTGCAATAGCTTCGTACA | 519 a.u.
CTACATTCAGTGCGTCACGACGCGAATAGGGCTTTC | 621 a.u.
GAAGCAAAAGTTCATATGATGCTATCTCCCGCTTAG | 473 a.u.
CTATCATCATGCACTCATGTGCCCGCGCGCGCGTTC | 726 a.u.
CTAGCCCAGTTAATTTTCGTGATTTTTCCCTTCTTC | 524 a.u.
CTACAAATAGTCAGTAACGCCACGTTTTAGGATTTC | 596 a.u.

Study 4 — technique: RNA Bind-n-Seq; molecule type: RNA; matrix: in vitro; tested at: 365 nM; reference: no-protein control; reading: higher = stronger binding
Target: RNA binding protein fox-1 homolog 2, RRM domain, GST-SBP tag (RBFOX2, Homo sapiens, UniProt O43251-10, residues 100-194)
Notes: natural RNA segment, single round, ends assumed
Shared flanks, not repeated: GGGAGUUCUACAGUCCGACGAUC … UGGAAUUCUCGGGUGCCAA
Residues (chain): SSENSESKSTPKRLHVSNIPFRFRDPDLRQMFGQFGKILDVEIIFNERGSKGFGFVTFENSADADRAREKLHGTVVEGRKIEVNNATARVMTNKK
Oligonucleotide | RBNS enrichment (R)
ACCUACUUCAUGUGGACCCUUUUUUUCCUUCAGUUUAACUUUUCUGGAGCAGUGUGCUGCGUAGUUCGGCCUGAGUUUGUGCAGCUUGUUAAGACAACUCUUGUGUACGC | 0.976
AGAGGAGGACUUGGCCUCAAGCCUGAAGAACAAAAGUCUCAGAAAGCAAAGAACAGCAUCACCUUGAUAAAUGUCUUGACUCAGUCUGCGGCUUGUGAUCUGAAAAGUUC | 0.315
GUGUGCAAAGAAAAGAACUGCUUGCAUUUCUUUAUUUCUGUCUCAUAAUUGUCAAAAACCAGAAUUAGGUCAAGUUCAUAGUUUCUGUAAUUGGCUUUUGAAUCAAAGAA | 0.377
GUAAGCCUGAAGUGAGGAUACUGCAAUUUUCGGAGAAAAGAACAGCAGCUCUUUAAGUGUUUGCAUUUUCUAUUUGGGGGGCAGGGAACUGUCAUUCAUUUUGCACAAUU | 0.879
CUGUGUAUAUAUAUUAAAAAAAAAACAAAGUUUUGUAUGUUUUUAUUACUUUAACUAUUGUUAUAAAAAGCCUGCCAUUUUUAAUAUGUGGUUUGGGGGAUUUUUGUUUG | 6.06
AACUCGACAGAAGAGUGAACACCACUUUCUAAAGAGGCUGCCUGCACCCCCUCCCUUUCCCUUAACUCUACUUUUACAUCCCCAAACCACCUUUGUCAUCAGCUUUUCCU | 1.09
CCAGCUUGCCUAGAGACGUUGCCUUCAUCAGAGAAGACUCCAUUAAUUCAGUGUCCCAAUGGUGUCCUAGGGAGGCAGCAGACGUUUCGUUUGUCCUCAGUAAGAGCUGA | 0.545
UUAUGAGAUGUAUCUUUUGCUCUCUCUUGCUCUCUUAUUUGUACCGGUUUUUGUAUAUAAAAUUCAUGUUUCCAAUCUCUCUCUCCCUGAUCGGUGACAGUCACUAGCUU | 0.948
CUGCGGCCCGCCCAUCUGCGCUAGCUGGCCUUCACGCUCUUGAUCGUCUUUCCUUUGUAUUGGAGAAGGACUGGGUCAGAGAUCUGUUGGAGAGAGAGAAUAAAGAGAUU | 0.534
ACCUUGGAGGAGAAAGUAAUUUCUAAAUAUACAGAGAGGUAACUUGACUAUAUAUGUUGCAUCCUGUGCCUCCCUUCAUAUUAAUAUUUGAUAAAGAUUUUAAUUUAUGU | 0.353
UUGACCAAUUGUCUACACAGCGACACAGAGUGUUGUGUAUGAAACGGAGUAACUGGCUUAAGGGGUUAAUGUGAGGCCUUACACAGUUGACGCAUAUACAUGAUUCUCAU | 0.708
CAGCACCCUGUGCCAGGCACUGACUCAAGCAAGAGGAACCUGGCCUGAUCCCUGACUUUGGGGAACCCAGAUCUUUCCUUUGAUUUUUGCUCCUAAUGAUCAAAACCCCA | 0.589

Study 5 — technique: RNA Bind-n-Seq; molecule type: RNA; matrix: in vitro; tested at: 100 nM; reference: input RNA pool; reading: higher = stronger binding
Target: RING finger protein unkempt homolog, zinc fingers 1-6, SBP tag (UNK, Homo sapiens, UniProt Q9C0B0, residues 30-357)
Chain of UniProt Q9C0B0 (30-357, looked up): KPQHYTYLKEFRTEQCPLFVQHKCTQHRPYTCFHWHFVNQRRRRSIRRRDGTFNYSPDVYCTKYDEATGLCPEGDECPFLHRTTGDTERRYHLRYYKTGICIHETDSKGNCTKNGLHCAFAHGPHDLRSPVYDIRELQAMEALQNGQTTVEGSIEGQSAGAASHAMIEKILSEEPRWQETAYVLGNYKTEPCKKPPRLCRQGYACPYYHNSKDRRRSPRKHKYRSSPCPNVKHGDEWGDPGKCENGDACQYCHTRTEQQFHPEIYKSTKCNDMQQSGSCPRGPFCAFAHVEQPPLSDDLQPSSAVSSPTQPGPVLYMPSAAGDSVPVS
Notes: RNA with constant flanks, vertebrate orthologous sites, ends assumed
Shared flanks, not repeated: GGGAGUUCUACAGUCCGACGAUC … CAACAGAGGAUUGAGCAUCA
Oligonucleotide | bound/input enrichment [ratio]
AAUCAGUAGAAUUACGUAAUACUAAAGUUGCAGUUGAAAGGAUAUCCAAGUAUGUGUUGGUAGUUACUAAAAGAAUUAUAGCUGUUAUUGCCUUGUAUUUAUAGCCCUGUUUCAGGUUUC | 1.06
UCCCAGCACUCUGAUAAAAAGUGUGGACUGGUUGCUUGUAUUUUCCUUAUUCUUUUUAAUCAGCUUUAUUAUGUACGCUACCAUUCGAACUGAGAGUAUUCGGUGGCUGAUUCCGGGACA | 0.455
UCAUUGUACUGCAAAAAUCAUCCUCGUUCUAAAUUAGCCACAGUGAUAACUUGUCUGCACUAGUAGAAUCAUUUACCUUUUAAAUUACCUGCUUUGUCUGAUACCUGAAACACAUCAAAA | 0.742
GUGUUUUGUACAGGGUAGUCUCUGUACUAGUUUGUUGUGGUUAUAAAAUAAUUAGCAAAACAGCUUACAUUUGUAUUUAUUUUCUAUUCCAUAAUUUUGCCCCAUGUUUUCUUUCAAAAU | 0.688
UCCCAGCACUUUGAUAAAAAAUGUAGACUGGUUGCUUGUAUUUUCCUUAUUCUUUUUAAUUAGUUUUAUUAUGUAUGCUACCGUUCGAACUGAGAGUAUUCGAUGGCUAAUUCCAGGACA | 2.27
AUUUGUAGCCAUUUUUACAUGUUUCCUAGAAAUAAUGGAUAAUCAUUUUCUUUUCUUUUUAAGUGCUGCUUUAACAAUGUGAAUAUACUAUAAAUGUACUUGCUGAAUUCAUUCAUUUUU | 0.386
CGUAAAAUAUUGGAUGCAGUGUAUAAAUUAUCCAAGGCAGUGACUUCAGCUUUAUAUAUAUUGGUAGUUUUAAGGUCAUUUACUUUUAUUUAAACUUCUAGAUCGGACUGUUUGCUAUUG | 0.519
UUUCUUUUUUUGCACAUGACAGUGUUUGUAUUGAGGAUCUUCCAAGGAAGAGGGGUGCUGUAGCAGUGGUGCCUGGGUACCUGGCCUCCAGUGUCCCACCUCCUUCACCACCCUGCUUGG | 0.393
CUACUCCCGCUCCAGCAGGGGUGUGGGGCCGAAGCAUCCACCAGCACUGCAAGGGGUCCACGGUAUUUUUUUUUUUGCUGCCUCAGUCCCCAGAGCCUUCAAGCAACAGUGGCUGUAGAU | 0.505
AAGCCAUCUUUUCCACAUUUUCUGUAAAUAAUGGAUAAUCAUUUUAAAAAAUUUUAUUUUUAGUGCUGUUUUAACAAUGUAGAUAGAUCAUAAAUGUACUUGCUGAAUUCAAUCAUUUUU | 0.871
AUCUCUCAUUUUAUAUGUCCAAAAAUGGCUUUGACUUUUUAAGCAAUUGCUAGUUUUAAUUAGCUCUGCCCUCGUGAGGACUUAUUAUAGUUCACCACAAACCGAUAACUGUCUGAAUUA | 0.521

A few entries again (study 5):
Oligonucleotide | bound/input enrichment [ratio]
AAUCAGUAGAAUUACGUAAUACUAAAGUUGCAGUUGAAAGGAUAUCCAAGUAUGUGUUGGUAGUUACUAAAAGAAUUAUAGCUGUUAUUGCCUUGUAUUUAUAGCCCUGUUUCAGGUUUC | 1.06
UCCCAGCACUCUGAUAAAAAGUGUGGACUGGUUGCUUGUAUUUUCCUUAUUCUUUUUAAUCAGCUUUAUUAUGUACGCUACCAUUCGAACUGAGAGUAUUCGGUGGCUGAUUCCGGGACA | 0.455
UCAUUGUACUGCAAAAAUCAUCCUCGUUCUAAAUUAGCCACAGUGAUAACUUGUCUGCACUAGUAGAAUCAUUUACCUUUUAAAUUACCUGCUUUGUCUGAUACCUGAAACACAUCAAAA | 0.742
GUGUUUUGUACAGGGUAGUCUCUGUACUAGUUUGUUGUGGUUAUAAAAUAAUUAGCAAAACAGCUUACAUUUGUAUUUAUUUUCUAUUCCAUAAUUUUGCCCCAUGUUUUCUUUCAAAAU | 0.688
UCCCAGCACUUUGAUAAAAAAUGUAGACUGGUUGCUUGUAUUUUCCUUAUUCUUUUUAAUUAGUUUUAUUAUGUAUGCUACCGUUCGAACUGAGAGUAUUCGAUGGCUAAUUCCAGGACA | 2.27
AUUUGUAGCCAUUUUUACAUGUUUCCUAGAAAUAAUGGAUAAUCAUUUUCUUUUCUUUUUAAGUGCUGCUUUAACAAUGUGAAUAUACUAUAAAUGUACUUGCUGAAUUCAUUCAUUUUU | 0.386
CGUAAAAUAUUGGAUGCAGUGUAUAAAUUAUCCAAGGCAGUGACUUCAGCUUUAUAUAUAUUGGUAGUUUUAAGGUCAUUUACUUUUAUUUAAACUUCUAGAUCGGACUGUUUGCUAUUG | 0.519
UUUCUUUUUUUGCACAUGACAGUGUUUGUAUUGAGGAUCUUCCAAGGAAGAGGGGUGCUGUAGCAGUGGUGCCUGGGUACCUGGCCUCCAGUGUCCCACCUCCUUCACCACCCUGCUUGG | 0.393
CUACUCCCGCUCCAGCAGGGGUGUGGGGCCGAAGCAUCCACCAGCACUGCAAGGGGUCCACGGUAUUUUUUUUUUUGCUGCCUCAGUCCCCAGAGCCUUCAAGCAACAGUGGCUGUAGAU | 0.505
AAGCCAUCUUUUCCACAUUUUCUGUAAAUAAUGGAUAAUCAUUUUAAAAAAUUUUAUUUUUAGUGCUGUUUUAACAAUGUAGAUAGAUCAUAAAUGUACUUGCUGAAUUCAAUCAUUUUU | 0.871
AUCUCUCAUUUUAUAUGUCCAAAAAUGGCUUUGACUUUUUAAGCAAUUGCUAGUUUUAAUUAGCUCUGCCCUCGUGAGGACUUAUUAUAGUUCACCACAAACCGAUAACUGUCUGAAUUA | 0.521
